Measurements from different studies.
Parts stem from different laboratories: compare values within a part only.

Study 1 — technique: protein-binding microarray; molecule type: double-stranded DNA, one strand shown; matrix: in vitro; tested at: 2540 nM top; notes: 60-bp whole probe; together with: salmon DNA 0.4 mg/ml; baseline: random background probes; reading: higher = stronger binding; all sequences stand within: GCCTAGCAC … GTCTTGATTCGCTTGACGCTGCTG
Target: Interferon regulatory factor 3, full length, phosphomimetic (IRF3, Homo sapiens, UniProt Q14653, residues 1-427, S386D/S396D/S398D/S402D/T404D/S405D)
Target sequence (chain): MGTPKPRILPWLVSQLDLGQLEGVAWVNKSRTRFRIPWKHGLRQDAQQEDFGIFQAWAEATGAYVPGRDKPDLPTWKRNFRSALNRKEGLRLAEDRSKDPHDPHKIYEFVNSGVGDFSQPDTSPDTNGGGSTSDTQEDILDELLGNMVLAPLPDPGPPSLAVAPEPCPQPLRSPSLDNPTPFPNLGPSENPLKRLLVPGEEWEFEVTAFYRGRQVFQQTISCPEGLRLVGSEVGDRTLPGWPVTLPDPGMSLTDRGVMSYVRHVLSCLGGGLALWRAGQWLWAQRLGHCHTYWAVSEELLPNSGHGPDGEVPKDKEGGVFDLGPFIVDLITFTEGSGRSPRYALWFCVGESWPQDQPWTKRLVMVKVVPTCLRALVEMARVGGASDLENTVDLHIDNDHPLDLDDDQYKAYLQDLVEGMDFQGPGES
Sequence | fitted relative affinity
AGAGAGAGTGAGGAACAACAGTGCTAG | -0.706 z-score
GACGGTCTCGGTCTCGTGACGTGCTAG | 1.35 z-score
GACGGTCGCGGTCTCGGGACGTGCTAG | -0.138 z-score
TCAAATACAAGTTTCTCACTGTGCTAG | 0.798 z-score
TCAGTTTTCCTTATTGCACTGTGCTAG | 5.39 z-score
TTAGGACTGGACACAGGGTTAGTGCTA | -0.642 z-score
TTAGATATCGGCTTTCGATTAGTGCTA | 0.427 z-score
GGCGATTTCAGACTGGAGACGTGCTAG | 0.524 z-score
TTAGGACTGGGACTGGGATAGTGCTAG | -0.646 z-score
TCATTTTTCTGATCCATACTGTGCTAG | 2.58 z-score
GACGAACTGAGGACTGGAGACGTGCTA | -0.292 z-score
GACGGTCTCGATATCGGGACGTGCTAG | 0.954 z-score
TCATAACTCATTTTCGTACTGTGCTAG | 1.58 z-score
GACGATTTCAGACTGGAGGCGTGCTAG | 0.928 z-score
GCCGGTTTCCTTATCCTGACGTGCTAG | 7.74 z-score
GACGGTTTCCCTATCCTGACGTGCTAG | 6.88 z-score
TTAGGACTGGGGTTTCGGTCAGTGCTA | 1.27 z-score
GACGGACTGGGTTTCGGTACGTGCTAG | 3.35 z-score
GACGGTTTCCTTCTCCCGACGTGCTAG | 10.2 z-score
TTATGACTGGGTTTCGGTTAGTGCTAG | 3.23 z-score
ATAGGTATCGGTCTCGGTTAGTGCTAG | 4.63 z-score
TTAGATCTCCGTTTCGATTAGTGCTAG | 3.52 z-score
GACGGTCTCGATTTCGGGACGTGCTAG | 1.94 z-score
CTCACCCAGTCCAGACACCCGTGCTAG | 0.489 z-score
CCTCACTTCCTTCTGCCTGTGTGCTAG | 0.571 z-score

Study 2 — technique: RNA Bind-n-Seq; molecule type: RNA; matrix: in vitro; tested at: not given; baseline: input RNA pool; reading: higher = stronger binding
Target: RING finger protein unkempt homolog, zinc fingers 1-6, GST-SBP tag (UNK, Homo sapiens, UniProt Q9C0B0, residues 30-357)
Notes: RNA with constant flanks, human-mouse chimeric sites, ends assumed
All sequences stand within: GGGAGUUCUACAGUCCGACGAUC … CAACAGAGGAUUGAGCAUCA
Construct (chain): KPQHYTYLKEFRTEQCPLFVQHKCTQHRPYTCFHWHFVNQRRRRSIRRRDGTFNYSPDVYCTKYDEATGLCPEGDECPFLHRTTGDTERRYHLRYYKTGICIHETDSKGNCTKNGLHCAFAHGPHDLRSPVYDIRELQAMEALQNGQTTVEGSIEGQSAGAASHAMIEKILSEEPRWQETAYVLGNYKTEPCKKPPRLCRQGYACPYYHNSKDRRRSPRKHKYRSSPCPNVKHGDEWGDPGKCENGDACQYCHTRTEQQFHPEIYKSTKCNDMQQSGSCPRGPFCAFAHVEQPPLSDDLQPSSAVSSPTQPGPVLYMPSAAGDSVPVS
Sequence | bound/input enrichment [ratio]
UUAAUCCCCUUCGUUGCUCCACCACUGCUCAUGGUAAUAACAAAGUCUUAUAUCCCCGUCCUAGCUUUCACUCAGAUGGCUUAUGGAGCCGGUUUCCUAGCUUUCUUGGGAGGGAUCAGA | 0.375
AACUUCGUACAUAGAUUUCCCUUUGUAGCUGUUUCAAUUGGCUUCCUUGUGAAUAAAGAGAUGGAGUUUGGAAUUGUGUACAGCUGUGUGGAAGAUAAGAUGUACACCGGCAGGAAAGGG | 0.82
UCUUAACUUAUUCAUUUAACUUAUUUUUAUAGCUAGAUAAAUAUUGUUAGUCUUAGUCAAUAGCUCACAUCUUUACAGAAGCAUGCCCUCCCUGUCCAUUUGUCUUAUAACAUGACCCAG | 13
UUAAUCCCCUUUACUGCUCCACCACUGCUCAUGGUAAUAACAAAGUCUUAUAUCCCCGUCCUAGCUUUCACUCAGAUGGCUUAUGGAGCCAGUUUCCUAGCUUUCUUGGGAGGGAUCAGA | 0.247
UUGAAAACUGAUUCAAGUAAGUUUGAGUAUCACAAUGUUAGCUUUCUAAUUCCACACAAGUACUUGGUUUUUACAGUUUAUAAUCUGCAAUCCAUCAAGCGCCAUUUGUAAAGAGCAACU | 0.316
CUGAGGAUACCACUGAAGAGACCUUAAAAGAAUCAUUUGAGGGCUCUCGUUCGGGCAGAAUAGUCACUGAUCGGGAAACUGGUUCUUUCCAAAGGGUUGGUUUUGUAGACUUUAAUAGUG | 0.876
AAAGAACCUCUCUCUGAUGAAGAUGAGGAAGACAAUGAUGAUGUUGAACCUAUUACUGAAUUUCGAUUUGUGCCCAGUGAUAAGUCAGCAUUGGAGGCGAUGUUCACAGCAAUGUGUGAG | 0.259
AUGGAACAUUUCGAUGCAUCACUUAGUACCUAUUUCAAGGCCUUCCUGGGCCCCCGAGAUACAAGAGUCAAAGGAUGGUUCCUCCUGGACAAUUAUAUCCCUACGUUUGUCUGUUCUGUU | 0.378
AUUCCGAUUAUGGACACCGGUGAAAACCCAGAGGUGCCCUUCCCCCGGGACAUGAUUGACUUAGAGGCCAAUUUCGAGAAGAUUGAAAAUGAACUGAAGGAAAUCAACACAAACCAGGAA | 0.0787
AGUACUGACUCAGGCGGAUUUUGCAACACCAAGCUCACAGCAGCAGCAUCUUAGUCACAGUAGGGUAGUUUUGGGGCUCUGUGGCCAGGGUUUUAUUCACAUGCAGGUUUUGAAAAUGUA | 2.74
AAAGUGAUGACUAUGUUUGUCCAACGACAGGUGUUUGCGGAGAGCAAAGAUGAGAUUGCGUUAGUCCUCUAUGGCACAGAUGGCACUGAUAAUGCCCUUGCUGGCAAGGACCAGUAUCAG | 0.176

Study 3 — technique: RNA Bind-n-Seq; molecule type: RNA; matrix: in vitro; tested at: 365 nM; baseline: no-protein control; reading: higher = stronger binding
Target: RNA binding protein fox-1 homolog 2, RRM domain, GST-SBP tag (RBFOX2, Homo sapiens, UniProt O43251-10, residues 100-194)
Notes: natural RNA segment, single round, ends assumed
All sequences stand within: GGGAGUUCUACAGUCCGACGAUC … UGGAAUUCUCGGGUGCCAA
Residues (chain): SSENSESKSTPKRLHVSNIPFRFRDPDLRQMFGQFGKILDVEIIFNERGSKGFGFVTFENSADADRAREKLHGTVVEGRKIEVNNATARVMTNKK
Sequence | RBNS enrichment (R)
GUCAGUGCUCUGCUCUCACCCUGCCCAAGACUCACCUCCCUUCCCCUCUGCAGGCCGACGGCAGGAGGACAGUCGGGUGAUGGUGUAUUCUGCCCUGCGCAUCCCACCCG | 0.379
CAGCGUUUGUGGGUUGGUUCAGGUGUGGUACCUCCCACUCAGGAGUCAAUAUUUUCAAAUUUUUCUAGUUUCCACACACGAGGUCCUGCCUGGGGUUUGAGAAAGCCUGG | 0.5
GAAGAAAAAGCUCCACUAAAGAUGAAUUUGGUAGCUUCAUUUGAGCAGAGUCUAUGAUUCCUACUCUUCUACUUCUUGUACUGAUAUAAGGGUUUGUUUUGUUUUGUUUU | 2.37
UCCUGGUUUUUGAAGAGCCUGUUAAGUACACUUGGCUAUUUCCUCCUUGGAGUCCUGUUCUUGCUCACGCCUUGUGGCUAUUUUGCCCUCAGAGUGCCCUGUAUCCUACA | 0.814
AGAUCAAAACCAUUCUGUAAAAUCUUUGUUGUUUAAUUAAAUGUGCCGUUAUUUACCCCUGAUGUUAUUUAUGACUAUGUGCCGAUUCCUGCUCGGGCUGUUUGCUGUUG | 1.95
UUGGUGAGCUGCUGGUAUUGCUGAAGGCAGGGUGGACCCCUCACUUGCUUCCUAGUGCACUCGUUCAAUUGGAUUGGGGAGGAGACUGACUGUACUCACGGCUAACUUGA | 0.663
AAAAUUUGUCCCCGAUUUUACCUUUGUCUUUCUGUGUACUUUUCAAAGAGUCCUAAGGAGUUAAAUCUUCCAGGUAUUUUCCACUUAGUAUUGCAGCCAAAGAAUAUUUA | 0.495
CAUGAUACCACACAGUCAUUUCCCAAUCAGUGCCUCACACAUCUAUCUGAUGGUGCAGUUUUGGGGUCUGUCCCCACUCCCCUCAGUCCCUACCCCUGCUCCCCUCAGAC | 0.485
CUUUUCUAAAUGUUCAGGAAAAGCAUUGCCAGUUCAGUCUUUUCAAAAUGAGGGAGAAACAUUUGCCUGCCUUGUAAUAACAAGACUCAGUGCUUAUUUUUUAAACUGCA | 0.464
CCUUGAGCCUCAAAACCUGUUCUACCAUUGAAGGAGAGGAAGAUUGAAGUUGGCUUACAUUUCUACAGUGUUAGGGGCGUAGGAGAAUUGGGGCCAACAUCCCAUCAGAA | 0.698
UUUUUUUUAAGGGCCUUGGAGCCAUCUCUAAAACAAACCUCAAGGGAUUUAGUGCCCUGUCUCCCUGUCUCUAGAAGCCUUAGCCUGGGCACCUGGCUCAAUCUUGUAAC | 0.435
UCCUCCCUGGGACACUUGUAAGUACAAAGCUCCCCAGCCUUUGAGGCCUCAACCCCCCACCAUCUGUCUGUCCUCAGGGACCCUCCAGUAGGGGGACCAUUGGGGACAUC | 0.257

Study 4 — technique: protein binding microarray; molecule type: double-stranded DNA, one strand shown; matrix: in vitro; tested at: not given; baseline: not given; reading: higher = stronger binding
Target: Histone acetyltransferase KAT6A, both winged helices, GST fusion (KAT6A, Homo sapiens, UniProt Q92794, residues 1-181)
Notes: 8-mer, flanks averaged, mean of 2 arrays, mostly near background
Construct (chain): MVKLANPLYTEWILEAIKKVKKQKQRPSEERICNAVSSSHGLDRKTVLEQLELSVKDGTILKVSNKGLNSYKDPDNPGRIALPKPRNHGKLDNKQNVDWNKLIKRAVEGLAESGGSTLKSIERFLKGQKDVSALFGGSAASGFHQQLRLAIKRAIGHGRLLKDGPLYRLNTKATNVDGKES
Sequence | E-score
CCGTTCTC | 0.12
CACTGGCA | -0.185
CATGGGGA | -0.115
AACTGGGT | -0.269
AAGCTCCT | -0.149
TACTAACA | -0.138
CACTGTAA | -0.0941
ACTTAGGG | -0.206
CATCACCG | 0.115
ACCTCCAG | -0.147
TGATGAAA | -0.227
ATTGCTAC | 0.0408
GATCATTA | -0.0128
AACTATCC | 0.00707
AATAGTGA | -0.0328
AAGCGTAA | 0.173
ATAGCAGG | -0.178
ACACAATG | -0.188
GTCGAAAA | 0.00557
GCAAATTA | -0.0781
AATCGACT | -0.115
AGCTCAGC | -0.131
AGCCGACC | 0.195
CGAGTATC | 0.0317
GCCCTAGA | -0.145

Excerpt of the above (study 4):
Sequence | E-score
CACTGGCA | -0.185
TGATGAAA | -0.227
AAGCTCCT | -0.149
CCGTTCTC | 0.12
GCCCTAGA | -0.145
CGAGTATC | 0.0317
ATAGCAGG | -0.178
ATTGCTAC | 0.0408
CATGGGGA | -0.115
ACACAATG | -0.188
AGCTCAGC | -0.131
AACTGGGT | -0.269
